Measured values gathered from unrelated publications.
Parts stem from different laboratories: compare values within a part only.

Sample 1 — technique: RNA Bind-n-Seq; form: RNA; matrix: in vitro; tested at: 365 nM; relative to: no-protein control; reading: higher = stronger binding
Target: RNA binding protein fox-1 homolog 2, RRM domain, GST-SBP tag (RBFOX2, Homo sapiens, UniProt O43251-10, residues 100-194)
Notes: natural RNA segment, single round, ends assumed
Construct (chain): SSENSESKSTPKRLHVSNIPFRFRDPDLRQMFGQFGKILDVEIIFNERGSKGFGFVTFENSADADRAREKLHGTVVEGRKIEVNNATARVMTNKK
`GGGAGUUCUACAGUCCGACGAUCCUUAGAUAUCUUAGUUAUCUUUUGUUGACAGAUGAAUGGGAAUUAACAAUAGCUUUAUGUCUUUGUGAAAAUGAAAUUUACUUUUAGUUUCAUAUUAUAUUUAAAGACAUUGGAAUUCUCGGGUGCCAA`: “RBNS enrichment (R)” 0.63.
For `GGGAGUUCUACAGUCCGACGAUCUCAUCCUAGGAUAGCUUCCUGGAAGCAGAACCAAGAAGCCAGAAGGUUCUUCCUAGGGUGGCCUUGGCUCCCUGAAGGAAUCUGAAAUGCUGACCCUGUCACAACCUCCCUGGAAUUCUCGGGUGCCAA`, “RBNS enrichment (R)” read 0.287.
Under “RBNS enrichment (R)”, `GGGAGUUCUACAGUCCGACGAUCACAGCGGCCUCAGCGUCCCCAGAGCCGAGCCAGGGUGUGAGUGCAUGUGAACGUUGAGUACACAUGAGUGCGUGUAUGCCCCCAGGCUGGGUCAGCUCUUCUGUGGAUUGUGGAAUUCUCGGGUGCCAA` is recorded as 0.568.
`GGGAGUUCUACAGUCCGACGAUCGAUAAUUUCCAGGUGUCUUCUCAAACGGAGUAAGCGCCUGGAUCCAAAUGGUAGACUACUUGACCCCGUUCUCUAGCGUGAGUUUUCAUAGUGCCAUCUCCUCAUGAUUGUGGAAUUCUCGGGUGCCAA`: “RBNS enrichment (R)” 0.305.
For `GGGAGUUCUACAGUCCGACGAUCCUGAGUAUGCAUUGAACAGUGGGGAUAUUAUAAACAGAAGCGCCUCUCUGAAGAACCCGGUUUCCGGUGUUGAGUGAUAGACUGGUUUGAGCGAGUACUGUUUUGUGGUGUGGAAUUCUCGGGUGCCAA`, “RBNS enrichment (R)” read 7.23.
For `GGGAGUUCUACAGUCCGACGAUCCCAGCCCUGCAGGGGCUGUACCCAGCUUGGCCUUAGCCCAUCUAAGUGCUGUCAACUGGUCUCCCACUGUCACUCCCACUCAUUUCAUUUGGACACAGGAAAUGUUGAUAUGGAAUUCUCGGGUGCCAA`, “RBNS enrichment (R)” read 0.391.
For `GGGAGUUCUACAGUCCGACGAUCAAUAAACUCCAGAUCUGAAAUUCAGUAUUUUAGAAAAAUGCCAGCUCUUCUUACUGUAUUUAUUAAAACUUGUAAUAAUGUGAUUUUUUUCAAGGAUAUUAGUUCAAAUUUGGAAUUCUCGGGUGCCAA`, “RBNS enrichment (R)” read 0.948.
`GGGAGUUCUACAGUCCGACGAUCGGAACACACACACAGGUGUUCUGACCAGCUCAGGCUUGCCACAGUGAGCAACUCUGUGGCUAGCAAAAGAGAAGUUUAUUUGUGCCCAGCCAUUGGUCACCUUGGGUGAUUGGAAUUCUCGGGUGCCAA`: “RBNS enrichment (R)” 0.306.

Sample 2 — target: human cyclin A2; technique: competitive growth deep sequencing; form: peptide; organism: Saccharomyces cerevisiae; strain: cyclin A2-Cln2 fusion strain; notes: peptide tiling library; reading: direction not given
With `LAKRALKYTD` the enrichment score was 0.507.
The enrichment score of `SFLIEYEFLIPPSLKP` is reported as 0.638.
`SDSTVTKLDFDLEP` has an enrichment score of 0.45.
The enrichment score of `VLLKRLQDVVSERANH` is reported as -1.26.
With `SPREGHMMDALYAQVK` the enrichment score was 0.405.
For `KPITLDTTDFQESFVT`, the enrichment score was 0.496.
With `ALLRRLQDVANDRGSH` the enrichment score was -0.721.
`KDDDKAWEYEERDRRS` gave an enrichment score of 0.753.
The enrichment score of `GQLVIPLDELTLDTSF` is reported as 1.79.
With `KSKHEEEEWTDDDLVE` the enrichment score was 1.19.
`LKGRRLVFDN` gave an enrichment score of 1.07.
`EPKTLFLGAGDFQF` gave an enrichment score of 1.62.
`RSLKLDGLLEEN` has an enrichment score of 0.832.

Sample 3 — technique: RNA Bind-n-Seq; form: RNA; matrix: in vitro; tested at: 1 µM; notes: whole 134-nt RNA, ends assumed; together with: 150 mM KCl; relative to: input library; reading: higher = stronger binding
Target: Ras GTPase-activating protein-binding protein 1, C-terminal RGG region (G3BP1, Homo sapiens, UniProt Q13283)
UniProt Q13283, sequence (whole entry, looked up): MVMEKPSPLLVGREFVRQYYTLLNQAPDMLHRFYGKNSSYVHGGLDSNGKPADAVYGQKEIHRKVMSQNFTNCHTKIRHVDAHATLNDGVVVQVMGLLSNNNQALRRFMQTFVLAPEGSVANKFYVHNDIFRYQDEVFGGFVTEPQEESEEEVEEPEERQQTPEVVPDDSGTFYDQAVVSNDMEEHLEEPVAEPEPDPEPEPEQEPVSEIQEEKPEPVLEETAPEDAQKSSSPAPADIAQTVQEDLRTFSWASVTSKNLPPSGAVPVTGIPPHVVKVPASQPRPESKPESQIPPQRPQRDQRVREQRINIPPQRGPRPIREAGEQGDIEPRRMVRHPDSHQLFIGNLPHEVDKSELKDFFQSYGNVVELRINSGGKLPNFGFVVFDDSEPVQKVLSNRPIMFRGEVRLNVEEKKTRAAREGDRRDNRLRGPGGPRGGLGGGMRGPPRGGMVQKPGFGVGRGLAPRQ
`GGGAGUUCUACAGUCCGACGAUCACCAUGCAGGUGGGCAUCUUUGGGAAGUGGGGCAAGGGGGGGAUAGGGAGGGGGGUAACACUUUGGGAACAGGUGAUCCCAGGUCGUUUCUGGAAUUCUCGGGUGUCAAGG` gave a log2 enrichment of 2.13.
For `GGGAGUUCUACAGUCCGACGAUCUCAAGUCCUGUGCUACACAUCGUAUGUACCGAAUCGGAGGUUUUUGGAAAAAGGAAAGUAUUAUGUUACGCCGUUCGGAUCUGCACUUCCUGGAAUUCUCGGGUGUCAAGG`, the log2 enrichment was -1.52.
For `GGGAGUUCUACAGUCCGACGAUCGUCCUGUGCUACACAUCGUAUGUACCGAAUCGGGAAAAAGGGAAAAAGGGUUUUUGGGAAAGUAUUAUGUUACGCCGUUCGGAUCUGCACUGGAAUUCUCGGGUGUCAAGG`, the log2 enrichment was -0.186.
The log2 enrichment of `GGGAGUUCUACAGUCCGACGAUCAGUCCUGUGCUACACAUCGUAUGUACCGAAUCAAACCCAAAUUUUUUUAAAUUUAAAAAAGUAUUAUGUUACGCCGUUCGGAUCUGCACUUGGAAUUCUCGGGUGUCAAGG` is reported as -1.34.
The log2 enrichment of `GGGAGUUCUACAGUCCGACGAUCUCCUGUGCUACACAUCGUAUGUACCGAAUCGGUUUUUUGGGUUUUUUGGGGUUUUUUGGAAAGUAUUAUGUUACGCCGUUCGGAUCUGCAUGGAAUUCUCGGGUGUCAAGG` is reported as -0.739.
The log2 enrichment of `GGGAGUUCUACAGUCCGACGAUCCACAGACAACACCCACCCACACAGACACAGAGGGAAGGGGUUGGGAUGGGGACAGGGUGCACAGCAGGGCGGGGUAGGACCCCAGCCCCUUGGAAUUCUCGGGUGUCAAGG` is reported as -0.276.
With `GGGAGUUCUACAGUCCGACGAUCCCUGUGCUACACAUCGUAUGUACCGAAUCGGGAAAAAAGGGGAAAAAAGGGGAAAAAAGGAAAGUAUUAUGUUACGCCGUUCGGAUCUGCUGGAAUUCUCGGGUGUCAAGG` the log2 enrichment was -1.69.
For `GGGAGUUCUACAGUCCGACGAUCAGUCCUGUGCUACACAUCGUAUGUACCGAAUCGGGGAGGGGAAAAAAAGGGGUGGGGAAAGUAUUAUGUUACGCCGUUCGGAUCUGCACUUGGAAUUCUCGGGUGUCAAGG`, the log2 enrichment was 1.89.
With `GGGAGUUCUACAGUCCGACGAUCCAAGUCCUGUGCUACACAUCGUAUGUACCGAAUCGGAAAAAGGUUUUUUUGGAGGAAAGUAUUAUGUUACGCCGUUCGGAUCUGCACUUCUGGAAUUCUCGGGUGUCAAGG` the log2 enrichment was -2.17.

Sample 4 — technique: protein-binding microarray; form: double-stranded DNA, one strand shown; matrix: in vitro; tested at: 250 nM; notes: 60-bp whole probe; together with: salmon DNA 0.4 mg/ml; relative to: random background probes; reading: higher = stronger binding; all sequences stand within: GCCTAGCAC … GTCTTGATTCGCTTGACGCTGCTG
Target: Interferon regulatory factor 5, full length, phosphomimetic (IRF5, Homo sapiens, UniProt Q13568-2, residues 1-514, K96S/S451D/S453D/S456D/S462D)
`GGTCTTCTGGGCTGTTTGATCGTGCTA` gave a log fluorescence of -0.313 z-score.
`TTAGGAGTGCTTATCCTTTAGTGCTAG` has a log fluorescence of -0.369 z-score.
`TTAGGTTCCCTTTTCCTGTAGTGCTAG` gave a log fluorescence of 0.404 z-score.
The log fluorescence of `GACGATCTCAGTTTCGAGAAGTGCTAG` is reported as 5.24 z-score.
With `TCACCTATTTATATGAGACTGTGCTAG` the log fluorescence was 0.597 z-score.
The log fluorescence of `TCATCTTCAGGTTCTCCCACTGTGCTA` is reported as 0.326 z-score.
For `CACCCACTCTTTCCTCACCATGTGCTA`, the log fluorescence was 0.244 z-score.
`GGCGGACTGGACACTGGGGACGTGCTA` gave a log fluorescence of -0.768 z-score.
The log fluorescence of `GACGATTTCGGGTTTTGAGACGTGCTA` is reported as 3.17 z-score.
With `GCCGATTTCAGTATCGAGACGTGCTAG` the log fluorescence was 4.29 z-score.
`TTAGGTCTCCTTCTCGTTTAGTGCTAG` gave a log fluorescence of 0.119 z-score.
With `TTAGGATTCGGGTATCGGTTAGTGCTA` the log fluorescence was 4.33 z-score.
With `TTAGATATCTGGTATCGATTAGTGCTA` the log fluorescence was 6.15 z-score.
`TTAGGTATCGACTATCGGTTAGTGCTA` gave a log fluorescence of 7.5 z-score.
`AGAAATTTTTTTTCTAACTAGTGCTAG` gave a log fluorescence of 1.27 z-score.
For `GACGATCTCAGTTTCGAGAGGTGCTAG`, the log fluorescence was 4.73 z-score.
For `GACGCACTGGACACTGGGGACGTGCTA`, the log fluorescence was -0.736 z-score.
With `TGAGGTTTCGACACTGGGTTAGTGCTA` the log fluorescence was 3.6 z-score.
`GACGGTATGCTACTGCTGACGTGCTAG` gave a log fluorescence of -0.567 z-score.

For quick reference, copied from above (sample 4):
With `TTAGATATCTGGTATCGATTAGTGCTA` the log fluorescence was 6.15 z-score.
`TTAGGTATCGACTATCGGTTAGTGCTA` gave a log fluorescence of 7.5 z-score.
`AGAAATTTTTTTTCTAACTAGTGCTAG` gave a log fluorescence of 1.27 z-score.
